Assay results of several laboratories.
Compare with care: the assays were run in different laboratories. ± gives the spread as reported.

SMILES | tested on | assay | system | setting | how to read | measurement | result
Cn1cc(Nc2nccc(-c3ccc4c(c3)CN(C3COC3)CC[C@H]4NC(=O)c3cn(C(C)(C)C)nn3)n2)cn1 |  |  | human, whole blood | 50 mg twice daily, day 14 | relative to: pre-dose baseline | NK cell count change | 14.9%
O=C(/C=C/CCc1ccc(O)cc1)/C=C/c1ccc(O)cc1 |  |  | nude mouse MCF7 xenograft | 10 mg/kg, day 9 |  | body weight | 20.5 ± 1.5 g
O=C(/C=C/c1ccc(O)c(O)c1)O[C@H]1[C@H](O)C[C@](O)(C(=O)O)C[C@H]1O |  |  | human plasma | median |  | plasma concentration | 23.5 nM
CCCn1cc(C)c2c(=O)[nH]c(-c3cc(S(=O)(=O)N4CCN(CC)CC4)ccc3OCC)nc21 |  |  | human | concentration not given |  | number of TEAEs | 50
CN(CCCN1CCN(C(=O)CN2CCN(CC(=O)[O-])CCN(CC(=O)[O-])CCN(CC(=O)[O-])CC2)CC1)c1ccc2nccc(C(=O)NCC(=O)N3CC(F)(F)C[C@H]3C#N)c2c1.[68Ga+3] |  |  | mice, HT-1080.hFAP and HT-1080 wild-type xenografts, spleen | iv, 500 pmol, 1 h post injection |  | uptake | 0.3 ± 0.1 %IA/g
COC(=O)c1cn(C)c2ccc(-c3cccnc3)cc12 | COS-7 | WST-8 |  | 30 µM, 24 h, 0.1% DMSO, unit not given | relative to: vehicle control | metabolic activity | 0.21 ± 0.01
C[C@H]1CN(C(=O)CC#N)[C@]12CCN(c1ncnc3[nH]ccc13)C2 |  |  | human | oral, dose not given, all compound groups |  | participants with dry skin | 3.1%
Cc1cc(-c2nccc3c2ccn3CC(=O)Nc2ccc(-c3cnccn3)cn2)ccn1 |  |  | human | SAD part, single 40 mg dose |  | subjects with any serious TEAE | 0%
Cc1c2oc3c(C)ccc(C(=O)N[C@@H]4C(=O)N[C@H](C(C)C)C(=O)N5CCC[C@H]5C(=O)N(C)CC(=O)N(C)[C@@H](C(C)C)C(=O)O[C@@H]4C)c3nc-2c(C(=O)N[C@@H]2C(=O)N[C@H](C(C)C)C(=O)N3CCC[C@H]3C(=O)N(C)CC(=O)N(C)[C@@H](C(C)C)C(=O)O[C@@H]2C)c(N)c1=O |  |  | children with cancer, plasma | dose not given, 15 min |  | median plasma concentration | 24.4 µg/L
Cc1c(Cl)c(C)[n+]([O-])c(Cl)c1-c1noc(-c2cc(O)c(O)c([N+](=O)[O-])c2)n1 |  |  | healthy Chinese subjects | oral, 25 mg |  | TEAE leading to discontinuation | 0%
CC[C@H](C)CCCCC(=O)N[C@@H](CCN)C(=O)N[C@H](C(=O)N[C@@H](CCN)C(=O)N[C@H]1CCNC(=O)[C@H]([C@@H](C)O)NC(=O)[C@H](CCN)NC(=O)[C@H](CCN)NC(=O)[C@H](CC(C)C)NC(=O)[C@@H](Cc2ccccc2)NC(=O)[C@H](CCN)NC1=O)[C@@H](C)O |  |  | mild renal insufficiency patients, plasma | IV, 0.75 mg/kg, geometric least squares mean |  | AUC(0-last) | 19700 ng·h/mL
OCCc1ccc(O)cc1 |  |  | human plasma | median |  | plasma concentration | 881 nM
Cc1ccc(C(=O)N(CCCN)C(c2nc3snc(C)c3c(=O)n2Cc2ccccc2)C(C)C)cc1 (centres unmarked) |  |  | patients, plasma | intravenous, 16 mg/day, 24 h, first induction course, geometric mean |  | C24h | 23.3 ng/mL
CC(C)[C@H](N)C(=O)NCCCS(=O)(=O)O |  |  | human both sexes, plasma | oral, 256.5 mg once daily, day 1, fed capsule |  | AUC(0-24) | 10400 ng·h/mL
CC(=O)O[C@H]1C[C@@]2(C)[C@@H](C[C@@H](O)[C@H]3[C@@]4(C)CC[C@@H](O)[C@@H](C)[C@@H]4CC[C@@]32C)/C1=C(\CCC=C(C)C)C(=O)O |  | starch gel membrane permeability | Gram-negative envelope surrogate | 200 µM, 60 min, pH 7.4 |  | amount permeated | 0.49 nmol
Cc1cc(C)c(CNC(=O)c2cc(Cl)c3c(c2C)O[C@@](C)([C@H]2CC[C@H](N(C)C)CC2)O3)c(=O)[nH]1 |  | refers to: Dysgeusia | human patients | oral, 200 mg once daily, 1 day onset day 14 |  | patients with TEAE | 4.2%
O=C(O)c1c(O)cccc1O |  |  | human plasma | median, both sexes |  | plasma concentration | 5810 nM
COc1cc(O)c2c(c1)C(=O)c1cc(C)cc(O)c1C2=O | HepaRG co-cultured with HK-2 | MTT |  | 266.67 µM, 24 h | relative to: untreated control | cell viability | 95.4 ± 13.4%
CC(C)C[C@H](NC(=O)[C@H](CCc1ccccc1)NC(=O)CN1CCOCC1)C(=O)N[C@@H](Cc1ccccc1)C(=O)N[C@@H](CC(C)C)C(=O)[C@@]1(C)CO1 |  | population PK, two-compartment model | adult relapsed/refractory DLBCL patients, plasma | intravenous infusion, dose not given, added: R-ICE |  | peripheral volume of distribution | 89.6 L
COc1c(O[C@@H]2O[C@H](CO)[C@@H](O)[C@H](O)[C@H]2O)cc2c(c1O)C(=O)c1c(cc(C)c(O)c1OC)C2=O | HepaRG co-cultured with HK-2 | MTT |  | 133.33 µM, 24 h | relative to: untreated control | cell viability | 73.2 ± 6.5%
CN(C(=O)n1cnc(-c2cccnc2)c1)[C@H]1CC[C@H](O)CC1 |  |  | Wistar rat, pons | oral, 10 mg/kg of BIA 10-2474, 24 h, single dose |  | concentration | 14.7 ± 0.6 ng/g
COc1cccc(-c2ccc(NC(=O)C3=C(C(=O)O)CCC3)c(F)c2)c1 | COS-7 |  |  | 3 µM, 24 h, 0.1% DMSO, unit not given | relative to: vehicle control | necrotic cells | 0.73 ± 0.19
CCc1nc(C(N)=O)c(Nc2ccc(N3CCC(N4CCN(C)CC4)CC3)c(OC)c2)nc1NC1CCOCC1 |  |  | Japanese patients, plasma | oral, 80 mg, cycle 1 day 28, multiple doses, mean |  | AUCtau | 4140 ng·h/mL

Excerpt of the above:
SMILES | tested on | assay | system | setting | how to read | measurement | result
Cc1cc(-c2nccc3c2ccn3CC(=O)Nc2ccc(-c3cnccn3)cn2)ccn1 |  |  | human | SAD part, single 40 mg dose |  | subjects with any serious TEAE | 0%
Cc1c2oc3c(C)ccc(C(=O)N[C@@H]4C(=O)N[C@H](C(C)C)C(=O)N5CCC[C@H]5C(=O)N(C)CC(=O)N(C)[C@@H](C(C)C)C(=O)O[C@@H]4C)c3nc-2c(C(=O)N[C@@H]2C(=O)N[C@H](C(C)C)C(=O)N3CCC[C@H]3C(=O)N(C)CC(=O)N(C)[C@@H](C(C)C)C(=O)O[C@@H]2C)c(N)c1=O |  |  | children with cancer, plasma | dose not given, 15 min |  | median plasma concentration | 24.4 µg/L
